Results of several laboratories.
Numbers after ± are the reported error. ≈ marks a conversion by molar mass, not a printed value.

Amino acid sequences for entries named in this document (tags omitted).
UniProt P42681, whole entry: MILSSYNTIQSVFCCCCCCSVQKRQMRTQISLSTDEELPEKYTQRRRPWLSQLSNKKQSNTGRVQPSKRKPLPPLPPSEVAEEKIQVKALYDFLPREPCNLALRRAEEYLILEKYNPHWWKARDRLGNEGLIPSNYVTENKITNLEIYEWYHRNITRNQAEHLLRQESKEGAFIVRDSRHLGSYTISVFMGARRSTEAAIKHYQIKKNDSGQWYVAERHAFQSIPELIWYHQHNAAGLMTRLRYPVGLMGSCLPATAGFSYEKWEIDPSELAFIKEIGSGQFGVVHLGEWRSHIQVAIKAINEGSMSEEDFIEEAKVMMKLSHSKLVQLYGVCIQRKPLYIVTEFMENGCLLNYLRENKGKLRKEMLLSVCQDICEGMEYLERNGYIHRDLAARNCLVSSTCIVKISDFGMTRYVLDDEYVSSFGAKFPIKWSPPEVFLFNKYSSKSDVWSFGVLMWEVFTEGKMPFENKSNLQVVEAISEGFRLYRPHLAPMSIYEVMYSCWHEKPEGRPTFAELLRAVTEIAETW
UniProt Q99640, whole entry: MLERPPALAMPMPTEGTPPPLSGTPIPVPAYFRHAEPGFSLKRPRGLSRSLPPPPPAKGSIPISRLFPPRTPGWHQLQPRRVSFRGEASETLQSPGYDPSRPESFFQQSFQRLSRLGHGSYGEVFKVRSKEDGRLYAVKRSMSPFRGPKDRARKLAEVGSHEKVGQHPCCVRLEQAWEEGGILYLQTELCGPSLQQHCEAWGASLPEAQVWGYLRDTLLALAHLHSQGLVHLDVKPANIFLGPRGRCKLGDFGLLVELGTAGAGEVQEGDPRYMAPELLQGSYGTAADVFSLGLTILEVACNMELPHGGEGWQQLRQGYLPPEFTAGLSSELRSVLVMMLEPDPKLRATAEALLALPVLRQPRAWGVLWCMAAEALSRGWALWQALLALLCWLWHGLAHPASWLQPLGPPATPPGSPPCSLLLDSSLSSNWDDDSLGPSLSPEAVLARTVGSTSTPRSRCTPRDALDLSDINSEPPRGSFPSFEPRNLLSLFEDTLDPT

Structure (SMILES)	target or system	test	test system	conditions	scale	measurement	result
CSCOc1ccc2nc3ccc(=O)cc-3oc2c1	Mycobacterium tuberculosis		mc2 6206 bedaquiline-resistant MmpL5 regulator mutant	7 days		MIC90	68 µM (≈ 18.6 µg/mL)
CS(=O)(=O)NC(=O)NCc1cn(-c2ccc(Cl)cc2)nc1-c1ccncc1	Mycobacterium tuberculosis		MmpL3 G253E mutant			MIC	1 µM
CCc1nc(N)nc(N)c1C#CCc1cc(OC)cc(-c2ccc(C(=O)O)cc2)c1	Mycobacterium tuberculosis		PAS-resistant thyX -16 C>T			MIC	16 µg/mL
CS(=O)(=O)NC(=O)CCc1cn(-c2ccc(Br)cc2)nc1-c1ccc(Cl)cc1	Mycobacterium tuberculosis		MmpL3 G758A mutant			MIC	2 µM
CC#C/C(=N\OC[C@H]1COCCN1)c1ccc2ncnc(Nc3ccc(OCc4cccc(F)c4)c(Cl)c3)c2c1	TXK (Homo sapiens, UniProt P42681)	kinase activity		10 µM		inhibition	6.3%
O=C(O)COc1ccc2nc3ccc(=O)cc-3oc2c1	Mycobacterium tuberculosis		mc2 6206 bedaquiline-resistant MmpL5 regulator mutant	7 days		MIC90	> 256 µM
CS(=O)(=O)NC(=O)NCc1cc(-c2ccc(Br)cc2)oc1-c1ccncc1	Mycobacterium tuberculosis	OD600	QcrB A317T mutant			MIC	0.12 µM
COc1c(C)c(-c2ccc(Cc3ccccc3)cc2)nc2ccccc12	Mycobacterium tuberculosis	growth	H37Rv	Wayne model, O2-limited		IC50	1600 ± 330 nM
CCN1CCN(Cc2ccc(NC(=O)c3ccc(C)c(/C=C/c4cnc5[nH]ccc5c4OC)c3)cc2C(F)(F)F)CC1	Membrane-associated tyrosine- and threonine-specific cdc2-inhibitory kinase, with CDC37 (PKMYT1, Homo sapiens, UniProt Q99640)	inhibitor		5 µM	relative to: no inhibitor	log2 fold change	0.286
O=c1ccc2nc3ccc(OCCCCF)cc3oc-2c1	Mycobacterium tuberculosis		mc2 6206 clofazimine-resistant fbiC mutant	7 days		MIC90	5.7 µM (≈ 1.64 µg/mL)
CCc1nc(N)nc(N)c1C#C[C@@H](C)c1cc(OC)cc(-c2ccc(C(=O)O)cc2)c1	Mycobacterium tuberculosis		PAS-resistant folC I43T			MIC	0.015 µg/mL
CC1(C)CCC(Cc2cc(O)c(-c3ccccc3)c(=O)[nH]2)CC1	Mycobacterium tuberculosis		H37Rv			MIC50	0.05 µM (≈ 0.0156 µg/mL)

A few entries again:
Structure (SMILES)	target or system	test	test system	conditions	scale	measurement	result
CC1(C)CCC(Cc2cc(O)c(-c3ccccc3)c(=O)[nH]2)CC1	Mycobacterium tuberculosis		H37Rv			MIC50	0.05 µM (≈ 0.0156 µg/mL)
